Assay results of several laboratories.
Lines come from different studies, so protocols differ. Values joined by “and” are separate records of one study, mostly repeats; a detail may differ. Numbers after ± are the reported error.
Sequence of UniProt Q9UL54 (whole entry, looked up): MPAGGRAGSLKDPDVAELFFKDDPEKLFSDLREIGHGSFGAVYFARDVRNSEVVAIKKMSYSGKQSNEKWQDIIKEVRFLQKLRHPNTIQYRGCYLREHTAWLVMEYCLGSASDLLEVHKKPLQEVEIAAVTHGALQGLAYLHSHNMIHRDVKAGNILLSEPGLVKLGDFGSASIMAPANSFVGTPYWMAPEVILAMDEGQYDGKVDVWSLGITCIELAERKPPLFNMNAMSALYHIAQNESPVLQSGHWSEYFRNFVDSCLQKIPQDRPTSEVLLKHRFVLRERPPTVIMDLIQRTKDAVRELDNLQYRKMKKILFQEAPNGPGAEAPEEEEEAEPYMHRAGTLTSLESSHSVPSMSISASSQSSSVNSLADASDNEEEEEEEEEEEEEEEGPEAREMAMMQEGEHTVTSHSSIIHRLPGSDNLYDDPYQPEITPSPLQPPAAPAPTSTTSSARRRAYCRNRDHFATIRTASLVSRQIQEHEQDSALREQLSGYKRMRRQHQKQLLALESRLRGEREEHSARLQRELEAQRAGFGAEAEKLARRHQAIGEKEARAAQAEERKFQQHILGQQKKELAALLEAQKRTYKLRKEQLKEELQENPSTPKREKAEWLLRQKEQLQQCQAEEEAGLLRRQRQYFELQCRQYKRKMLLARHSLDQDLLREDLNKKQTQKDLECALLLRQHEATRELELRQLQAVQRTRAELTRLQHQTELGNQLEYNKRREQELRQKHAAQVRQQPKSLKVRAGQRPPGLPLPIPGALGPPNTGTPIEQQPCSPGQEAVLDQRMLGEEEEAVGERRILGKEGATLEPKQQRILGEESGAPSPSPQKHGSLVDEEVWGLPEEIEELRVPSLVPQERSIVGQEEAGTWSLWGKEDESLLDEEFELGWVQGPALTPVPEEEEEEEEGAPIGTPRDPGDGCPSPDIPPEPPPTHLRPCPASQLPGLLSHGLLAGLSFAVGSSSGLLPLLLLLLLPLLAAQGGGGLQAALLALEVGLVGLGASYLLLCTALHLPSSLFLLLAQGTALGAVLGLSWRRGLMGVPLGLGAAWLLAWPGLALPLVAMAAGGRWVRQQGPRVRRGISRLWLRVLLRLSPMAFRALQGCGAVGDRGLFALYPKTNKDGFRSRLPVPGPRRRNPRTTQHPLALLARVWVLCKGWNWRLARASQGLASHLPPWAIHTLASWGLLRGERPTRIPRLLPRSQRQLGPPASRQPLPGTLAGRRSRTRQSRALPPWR
Sequence of UniProt Q99683 (whole entry, looked up): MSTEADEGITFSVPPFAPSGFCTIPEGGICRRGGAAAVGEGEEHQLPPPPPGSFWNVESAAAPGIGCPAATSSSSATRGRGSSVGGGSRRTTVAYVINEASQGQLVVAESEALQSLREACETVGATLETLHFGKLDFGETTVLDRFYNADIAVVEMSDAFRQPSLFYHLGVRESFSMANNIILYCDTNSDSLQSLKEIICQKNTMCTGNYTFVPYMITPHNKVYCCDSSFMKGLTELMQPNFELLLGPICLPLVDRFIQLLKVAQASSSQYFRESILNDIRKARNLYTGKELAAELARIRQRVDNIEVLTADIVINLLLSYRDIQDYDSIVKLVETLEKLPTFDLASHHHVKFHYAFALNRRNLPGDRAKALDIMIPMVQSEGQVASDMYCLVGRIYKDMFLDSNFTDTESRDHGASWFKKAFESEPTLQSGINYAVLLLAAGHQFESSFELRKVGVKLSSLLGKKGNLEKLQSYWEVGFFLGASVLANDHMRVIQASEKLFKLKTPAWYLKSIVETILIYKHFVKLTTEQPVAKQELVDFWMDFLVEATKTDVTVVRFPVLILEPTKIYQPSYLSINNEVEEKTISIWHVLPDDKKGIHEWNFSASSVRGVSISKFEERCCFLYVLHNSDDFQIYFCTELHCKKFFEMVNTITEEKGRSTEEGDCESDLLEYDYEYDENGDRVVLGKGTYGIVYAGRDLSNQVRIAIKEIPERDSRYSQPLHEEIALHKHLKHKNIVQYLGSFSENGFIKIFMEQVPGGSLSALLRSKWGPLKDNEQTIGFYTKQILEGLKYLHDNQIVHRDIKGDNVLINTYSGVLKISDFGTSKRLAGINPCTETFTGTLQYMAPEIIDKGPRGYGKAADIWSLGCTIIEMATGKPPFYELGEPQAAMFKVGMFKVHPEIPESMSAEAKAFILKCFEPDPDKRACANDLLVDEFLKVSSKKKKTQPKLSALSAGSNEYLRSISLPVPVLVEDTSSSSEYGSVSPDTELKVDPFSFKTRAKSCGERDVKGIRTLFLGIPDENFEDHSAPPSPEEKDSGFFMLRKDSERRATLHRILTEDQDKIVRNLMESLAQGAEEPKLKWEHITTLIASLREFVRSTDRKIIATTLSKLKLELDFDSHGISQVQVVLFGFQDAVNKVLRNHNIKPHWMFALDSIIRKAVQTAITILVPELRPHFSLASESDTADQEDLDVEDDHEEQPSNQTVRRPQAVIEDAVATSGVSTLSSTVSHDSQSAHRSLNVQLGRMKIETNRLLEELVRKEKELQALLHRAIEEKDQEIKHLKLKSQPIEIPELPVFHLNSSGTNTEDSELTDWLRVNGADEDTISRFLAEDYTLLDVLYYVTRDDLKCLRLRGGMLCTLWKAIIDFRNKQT
Sequence of UniProt Q9NZJ5 (whole entry, looked up): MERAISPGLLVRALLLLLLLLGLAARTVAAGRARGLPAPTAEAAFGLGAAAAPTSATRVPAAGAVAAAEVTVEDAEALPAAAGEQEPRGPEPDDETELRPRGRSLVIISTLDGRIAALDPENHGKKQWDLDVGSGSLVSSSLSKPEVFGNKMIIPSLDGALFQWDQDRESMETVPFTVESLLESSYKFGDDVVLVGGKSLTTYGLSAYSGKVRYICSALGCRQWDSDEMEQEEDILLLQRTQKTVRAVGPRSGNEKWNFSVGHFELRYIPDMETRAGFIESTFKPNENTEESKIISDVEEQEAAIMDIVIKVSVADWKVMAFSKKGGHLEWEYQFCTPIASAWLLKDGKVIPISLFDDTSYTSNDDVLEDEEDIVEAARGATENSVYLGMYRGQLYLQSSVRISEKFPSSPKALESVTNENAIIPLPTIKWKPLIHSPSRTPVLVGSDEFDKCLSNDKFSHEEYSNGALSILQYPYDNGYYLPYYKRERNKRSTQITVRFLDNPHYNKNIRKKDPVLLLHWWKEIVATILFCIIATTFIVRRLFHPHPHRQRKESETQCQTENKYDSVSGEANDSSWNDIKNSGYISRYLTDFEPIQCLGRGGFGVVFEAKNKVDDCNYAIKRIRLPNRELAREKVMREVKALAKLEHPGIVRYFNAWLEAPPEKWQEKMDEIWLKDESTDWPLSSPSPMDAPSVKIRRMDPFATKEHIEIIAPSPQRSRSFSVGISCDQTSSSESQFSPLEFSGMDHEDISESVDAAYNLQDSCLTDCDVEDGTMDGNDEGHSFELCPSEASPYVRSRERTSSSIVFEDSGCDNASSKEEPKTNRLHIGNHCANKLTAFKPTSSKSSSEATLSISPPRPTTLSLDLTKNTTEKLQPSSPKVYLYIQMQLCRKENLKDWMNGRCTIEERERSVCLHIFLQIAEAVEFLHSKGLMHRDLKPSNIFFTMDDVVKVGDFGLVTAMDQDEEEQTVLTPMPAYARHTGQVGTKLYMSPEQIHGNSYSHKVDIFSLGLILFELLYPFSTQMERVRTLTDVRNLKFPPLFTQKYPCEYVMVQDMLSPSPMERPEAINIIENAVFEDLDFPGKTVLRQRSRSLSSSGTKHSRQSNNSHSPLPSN

CC[C@H](C)[C@H](NC(=O)[C@H](C)NC(=O)[C@H](CCCCN)NC(=O)[C@H](CCCCN)NC(=O)[C@@H](N)CCCNC(=N)N)C(=O)N[C@@H](CCCCN)C(=O)N[C@@H](CC(C)C)C(=O)N[C@H](C(=O)N[C@@H](CCCCN)C(=O)N[C@@H](CCCCN)C(=O)N[C@@H](CC(C)C)C(=O)N[C@H](C(=O)N[C@@H](CCCCN)C(=O)N[C@@H](CCCCN)C(=O)N[C@@H](CC(C)C)C(=O)N[C@@H](CCCCN)C(=O)N[C@@H](CCCCN)C(=O)N[C@@H](C)C(=O)N[C@@H](CC(C)C)C(=O)N[C@@H](CCCCN)C(=O)O)C(C)C)C(C)C
hemolysis (human red blood cells; 4 mg/L, 1 h, mean of replicates): 1.17%

O=C1NC2(CC2)COc2ncc(F)cc2[C@H]2COCCN2c2ccn3ncc1c3n2
organ-to-brain weight ratio (Sprague-Dawley rat, female, kidneys; oral, 5 mg/kg/day, 4 weeks, end of treatment): 113 ± 13.1%

CC(C)(C)C(=O)OCOP(=O)(OCOC(=O)C(C)(C)C)C1CCCN(O)C1=O (stereo not shown)
log TGI (MDA-MB-435): -4.65 log M

N=C(N)NCCC[C@@H](NC(=O)[C@H](N)Cc1c[nH]c2ccccc12)C(=O)N[C@H](CCCCN)C(=O)N[C@H](Cc1c[nH]c2ccccc12)C(=O)N[C@H](CCCNC(=N)N)C(=O)N[C@H](CCCCN)C(=O)N[C@H](Cc1c[nH]c2ccccc12)C(=O)N[C@H](CCCNC(=N)N)C(=O)N[C@H](CCCCN)C(=O)N[C@H](Cc1c[nH]c2ccccc12)C(=O)N[C@H](CCCNC(=N)N)C(=O)N[C@H](CCCCN)C(N)=O
survival (mouse; intraperitoneal, 30 mg/kg single dose, day 6): 100%

NC1CCN(C(=O)Oc2ccc(C3CCCC4(C3)OOC3(O4)C4CC5CC(C4)CC3C5)cc2)CC1 (racemic)
MRT(0-inf) (male ICR mice, plasma; oral, 50 mg/kg): 9.83 h

CSCC[C@H](N)C(=O)N[C@@H](C)C(=O)N[C@@H](Cc1c[nH]c2ccccc12)C(=O)N[C@@H](Cc1c[nH]cn1)C(=O)N[C@@H](CC(=O)O)C(=O)N[C@@H](CC(=O)O)C(=O)N[C@@H](CCC(=O)O)C(=O)N[C@@H](CCC(=O)O)C(=O)N[C@@H](Cc1ccccc1)C(=O)N[C@@H](C)C(=O)N[C@@H](CCCNC(=N)N)C(=O)N[C@@H](CCCNC(=N)N)C(=O)N[C@@H](CCCNC(=N)N)C(=O)N[C@@H](CCCNC(=N)N)C(=O)NCCCCCC(=O)NCCCCC(NC(=O)CCCCCNC(=O)[C@H](CCCNC(=N)N)NC(=O)[C@H](CCCNC(=N)N)NC(=O)[C@H](CCCNC(=N)N)NC(=O)[C@H](CCCNC(=N)N)NC(=O)[C@H](C)NC(=O)[C@H](Cc1ccccc1)NC(=O)[C@H](CCC(=O)O)NC(=O)[C@H](CCC(=O)O)NC(=O)[C@H](CC(=O)O)NC(=O)[C@H](CC(=O)O)NC(=O)[C@H](Cc1c[nH]cn1)NC(=O)[C@H](Cc1c[nH]c2ccccc12)NC(=O)[C@H](C)NC(=O)[C@@H](N)CCSC)C(=O)NCCCCC(NC(=O)C(CCCCNC(=O)CCCCCNC(=O)[C@H](CCCNC(=N)N)NC(=O)[C@H](CCCNC(=N)N)NC(=O)[C@H](CCCNC(=N)N)NC(=O)[C@H](CCCNC(=N)N)NC(=O)[C@H](C)NC(=O)[C@H](Cc1ccccc1)NC(=O)[C@H](CCC(=O)O)NC(=O)[C@H](CCC(=O)O)NC(=O)[C@H](CC(=O)O)NC(=O)[C@H](CC(=O)O)NC(=O)[C@H](Cc1c[nH]cn1)NC(=O)[C@H](Cc1c[nH]c2ccccc12)NC(=O)[C@H](C)NC(=O)[C@@H](N)CCSC)NC(=O)CCCCCNC(=O)[C@H](CCCNC(=N)N)NC(=O)[C@H](CCCNC(=N)N)NC(=O)[C@H](CCCNC(=N)N)NC(=O)[C@H](CCCNC(=N)N)NC(=O)[C@H](C)NC(=O)[C@H](Cc1ccccc1)NC(=O)[C@H](CCC(=O)O)NC(=O)[C@H](CCC(=O)O)NC(=O)[C@H](CC(=O)O)NC(=O)[C@H](CC(=O)O)NC(=O)[C@H](Cc1c[nH]cn1)NC(=O)[C@H](Cc1c[nH]c2ccccc12)NC(=O)[C@H](C)NC(=O)[C@@H](N)CCSC)C(N)=O (stereo partly shown)
tissue distribution (C57BL/6 mouse female, thymus; dose not given, 6 h; relative to: total): 0.71% and 0.91% and 0.72%

CC[C@H](C)[C@H](NC(=O)[C@H](CCCCN)NC(=O)CNC(=O)[C@H](CC(C)C)NC(=O)[C@H](Cc1ccccc1)NC(=O)[C@H](CCCCN)NC(=O)[C@H](CO)NC(=O)[C@H](Cc1ccccc1)NC(=O)[C@H](Cc1c[nH]c2ccccc12)NC(=O)[C@H](CCC(N)=O)NC(=O)[C@@H](NC(=O)[C@H](Cc1ccccc1)NC(=O)CCCCCNC(=O)CN1CCN(CC(=O)O)CCN(CC(=O)O)CCN(CC(=O)O)CC1)C(C)C)C(=O)N[C@@H](CCC(=O)O)C(=O)N1CCC[C@H]1C(=O)N[C@@H](CC(=O)O)C(=O)N[C@H](C(=O)N[C@@H](CO)C(=O)N[C@@H](CCC(N)=O)C(=O)N[C@H](C(=O)N[C@@H](CCC(N)=O)C(=O)N[C@@H](CC(=O)O)C(=O)N1CCC[C@H]1C(=O)N[C@@H](CC(N)=O)C(=O)N[C@@H](CC(=O)O)C(=O)N[C@@H](CCC(N)=O)C(=O)N[C@@H](Cc1ccc(O)cc1)C(=O)N[C@@H](CCC(=O)O)C(=O)N1CCC[C@H]1C(=O)N[C@@H](Cc1ccccc1)C(=O)O)C(C)C)C(C)C [copper-64 labelled]
tissue uptake (C57BL/6 mice, blood; vehicle, intratracheal instillation): 0.73 ± 0.01 %ID/g

COc1ccccc1-c1n[nH]c2nc(NC3CCN(C(=O)Cc4ccc(F)cc4F)CC3)ncc12
relative abundance (bead binding, competition bead pull-down, refers to: LINJ.19.1560; Leishmania donovani extract; 10 µM; relative to: vehicle): 1.01

CC(C)C[C@H](NC(=O)[C@H](C)NC(=O)[C@H](CCCCN)NC(=O)CCNC(=S)Nc1ccc2c(c1)C(=O)OC21c2ccc(O)cc2Oc2cc(O)ccc21)C(=O)N[C@@H](CCC(=O)O)C(=O)N[C@H](C(=O)N[C@@H](CC(C)C)C(=O)N[C@@H](CCCNC(=N)N)C(=O)N[C@@H](CCCNC(=N)N)C(=O)N[C@H](C(=O)NCC(=O)N[C@@H](CC(=O)O)C(=O)NCC(=O)N[C@H](C(=O)N[C@@H](CCC(N)=O)C(=O)N[C@@H](CCCNC(=N)N)C(=O)N[C@@H](CC(N)=O)C(=O)N[C@@H](Cc1c[nH]cn1)C(=O)N[C@@H](CCC(=O)O)C(=O)N[C@H](C(=O)N[C@@H](C)C(=O)N[C@@H](Cc1ccccc1)C(N)=O)[C@@H](C)O)C(C)C)C(C)C)[C@@H](C)O
α-helicity (circular dichroism; potassium phosphate buffer; 20 µM, pH 7.5): 18%

CN1Cc2cc(Cl)ccc2-n2c(nnc2C2CCN(c3cccc([18F])n3)CC2)C1
tissue uptake (C57BL/6 mouse male, pancreas; intravenous, 3.7 MBq, 60 min): 5.77 ± 1.31 %ID/g

CC(C)[C@H]1NC(=O)C[C@H]2/C=C/CCSSC[C@@H](NC1=O)C(=O)N[C@H](Cc1cccc3ccccc13)C(=O)NCC(=O)O2
inhibition (EIF2AK3 (Homo sapiens, UniProt Q9NZJ5); enzyme activity, inhibitor; 10 µM): 7.1%

C[C@H](NCc1ccc(-c2ccc(C(F)(F)F)cc2)cc1)C(N)=O
compound remaining (metabolic stability; dog, liver microsomes; 1 µM, 30 min, pH 7.4): 61%

CN(C)[C@H]1C[C@@]23CC[C@@]4(O2)C(=CC[C@]2(C)[C@@H](c5ccc6ccncc6c5)CC[C@H]24)C=C3[C@@H](O)[C@@H]1O
inhibition (MAP3K5 (Homo sapiens, UniProt Q99683); ATP probe labelling, inhibitor, KiNativ profiling; 0.1 µM): 12.4%

CC(=O)NCCCC[C@@H]1NC(=O)[C@H](Cc2c[nH]c3c(C)cccc23)NC(=O)[C@H]([C@@H](C)O)NC(=O)[C@H](CC(N)=O)NC(=O)[C@@H](NC(C)=O)C(C)(C)SSC(C)(C)[C@@H](C(=O)N[C@@H](Cc2ccc(OCCN)cc2)C(=O)N[C@@H](Cc2ccc3ccccc3c2)C(=O)NC2(C(=O)N[C@@H](CCC(=O)O)C(=O)N[C@@H](CC(N)=O)C(=O)N[C@@H](Cc3cccnc3)C(=O)N(C)CC(N)=O)CCOCC2)NC1=O
unbound fraction (equilibrium dialysis; rat, plasma; 0.01 µM): 49.2 ± 3%

C#Cc1c(F)ccc2cc(O)cc(-c3ncc4c(N5CC6CCC(C5)N6C(=O)OC(OC(=O)CCC)C5CCCCC5)nc(OC[C@@]56CCCN5C[C@H](F)C6)nc4c3F)c12 (stereo partly shown)
t1/2 (refers to: prodrug; mouse whole blood; 1 µM): 4.59 min

O=C1NC(=O)c2c1c1cc(F)c[n+]3c1c1c2c2cc(O)ccc2[n]1[Ru-4]312([N]=C=S)[S+]3CC[S+]1CC[S+]2CC3 (stereo not shown)
remaining activity (TAOK2 (Homo sapiens, UniProt Q9UL54); enzyme activity; 100 nM, human enzyme, together with: 10 µM ATP; relative to: untreated): 93%

CC(CCC(=O)NCC(=O)O)C1CCC2C3C(O)CC4CC(OC5OC(C(=O)O)C(O)C(O)C5O)CCC4(C)C3CCC12C (stereo not shown)
plasma concentration (women, C/C genotype, plasma; dose not given, geometric mean): 139 ng/mL

CCCC[C@H]1C(=O)N(C)[C@@H](CCCC)C(=O)N[C@@H](CCCNC(=O)CN2CCN(CC(=O)O)CCN(CC(=O)O)CCN(CC(=O)O)CC2)C(=O)N[C@H](C(=O)NCC(N)=O)CSCC(=O)N[C@@H](Cc2ccc(O)cc2)C(=O)N(C)[C@@H](C)C(=O)N[C@@H](CC(N)=O)C(=O)N2CCC[C@H]2C(=O)N[C@@H](Cc2c[nH]cn2)C(=O)N[C@@H](CC(C)C)C(=O)N(C)CC(=O)N[C@@H](Cc2c[nH]c3ccccc23)C(=O)N[C@@H](CO)C(=O)N[C@@H](Cc2c[nH]c3ccccc23)C(=O)N1C [gallium-68 labelled]
tissue uptake (NOD/SCID mice, CHO-hPD-L1 xenograft, spleen; 60 min, PBS pretreatment): 3.1 ± 0.24 %ID/g

CC(C)[C@@H]1NC(=O)CNC(=O)[C@H](CC(N)=O)NC(=O)[C@H](CCCNC(=N)N)NC(=O)[C@H](Cc2ccc(O)cc2)NC(=O)[C@H](C(C)C)NC(=O)[C@@H](NC(=O)[C@@H](NC(=O)[C@H](CC(N)=O)NC(=O)[C@H](Cc2c[nH]c3ccccc23)NC(=O)[C@H](C)NC(=O)[C@H](Cc2ccccc2)NC(=O)CNC(=O)[C@H](CCCCN)NC(=O)[C@H](Cc2ccccc2)NC(=O)[C@H](Cc2ccccc2)NC(=O)[C@H](CCCCN)NC(=O)OCC2c3ccccc3-c3ccccc32)C(C)C)CSSC[C@@H](C(=O)N[C@@H](Cc2c[nH]cn2)C(=O)N[C@@H](CCCNC(=N)N)C(=O)N[C@@H](CCCNC(=N)N)C(=O)N[C@@H](C)C(=O)N[C@@H](CC(N)=O)C(N)=O)NC(=O)[C@H](C(C)C)NC(=O)[C@H](CCCNC(=N)N)NC1=O
AST (ICR mouse, blood; intramammary, 10 mg/kg, day 5, 3 d dosing): 26.4 ± 0.68 IU/L

COc1ccc([C@@H]2CC(=O)c3c(O)cc(O[C@@H]4O[C@H](CO)[C@@H](O)[C@H](O)[C@H]4O[C@@H]4O[C@@H](C)[C@H](O)[C@@H](O)[C@H]4O)cc3O2)cc1O
urinary excretion (male Sprague-Dawley rats, obese, urine; oral, 100 mg/kg, 48 to 36 h, total after deconjugation): 3.45 ± 1.07 ng

CCCCC[C@H]1C(=O)N[C@H](C)C(=O)N(C)[C@@H](CCCCC)C(=O)N[C@H](C)C(=O)N(C)[C@@H](CCCCC)C(=O)N[C@H](C)C(=O)N(C)[C@@H](CCCCC)C(=O)N[C@H](C)C(=O)N1C
log Papp (PAMPA; 500 µM, pH 7.4, UV/ELSD/MS detection): -6.15

C[C@H](O)[C@@H](NC(=O)[C@H]1CCCN1C(=O)[C@@H](CCCCN)NC(=O)[C@@H](CO)NC(=O)[C@@H](Cc1ccc(O)cc1)NC(=O)[C@@H](CC(N)=O)NC(=O)CCOCCOCCOCCNC(=O)CN1CCN(CC(=O)O)CCN(CC(=O)O)CCN(CC(=O)O)CC1)C(=O)N[C@H](CC(=O)O)C(=O)N[C@H](CCCNC(=N)N)C(=O)N[C@H](CCC(N)=O)C(=O)N[C@H](Cc1ccc(O)cc1)C(=O)N[C@H](Cc1c[nH]cn1)C(=O)N[C@H](Cc1ccccc1)C(N)=O [copper-64 labelled]
tissue uptake (C57BL/6J mice, kidney; intravenous, 1.85 MBq, 0.6667 h, radiolabelled): 29.3 ± 1.05 %ID/g

A few entries again:
C#Cc1c(F)ccc2cc(O)cc(-c3ncc4c(N5CC6CCC(C5)N6C(=O)OC(OC(=O)CCC)C5CCCCC5)nc(OC[C@@]56CCCN5C[C@H](F)C6)nc4c3F)c12 (stereo partly shown)
t1/2 (refers to: prodrug; mouse whole blood; 1 µM): 4.59 min
